Measured values from different studies.
A part holds a random share of what one study measured. Changes are numbered by the printed parent chain.

Set 1
Target: CCNF, cyclin fold, Cln2 fusion (human)
Technique: yeast growth competition, sequencing
Sample: yeast
Setting: strong parent motif
Reference: not given
Direction: higher = stronger binding
Endpoint: normalised enrichment score
Starting sequence: viral docking peptide; TSVRRALFTGGSD
R5V: 1.27
R4V: 6.85
F8Y: 5.71
L7F: 0.5
R5A L7A: 0.114
L7V: 1.15
T9E: 7.75
V3S: 3.77
R5W: 0.734
V3Q: 2.2
G10P: 7.93
G10Y: 8.48
T9G: 8.84
S2K: 8.58
V3T: 7.51
S2D: 7.31
F8V: 1.08

Set 2
Target: PABPC1L2, full length, GST fusion (mouse, UniProt A0ABA7IW68)
Technique: RNAcompete
Molecule type: RNA
Sample: in vitro
Concentration: 20 nM
Setting: 7-mer, probes averaged, single round
Reference: mean of 7-mers
Direction: higher = stronger binding
Endpoint: 7-mer Z-score
Target sequence (chain): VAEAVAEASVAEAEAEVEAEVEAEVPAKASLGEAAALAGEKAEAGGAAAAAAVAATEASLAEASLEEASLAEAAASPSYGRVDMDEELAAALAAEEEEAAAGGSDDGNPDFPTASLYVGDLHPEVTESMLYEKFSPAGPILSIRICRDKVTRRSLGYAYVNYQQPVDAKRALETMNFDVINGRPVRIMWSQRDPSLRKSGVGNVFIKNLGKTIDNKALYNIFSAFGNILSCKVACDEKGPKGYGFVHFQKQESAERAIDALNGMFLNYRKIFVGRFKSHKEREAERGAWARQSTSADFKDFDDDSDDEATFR
GUGUGGG: 0.0189
AUUGUAC: -0.229
CGCAAGU: -0.365
GUCGGCC: -0.246
UGGCUGC: -0.0138
GUCGGGA: 0.157
CCGCUCU: -0.373
GUUACGG: -0.271

Set 3
Target: Histone acetyltransferase KAT6A, both winged helices, GST fusion (KAT6A, Homo sapiens, UniProt Q92794, residues 1-181)
Technique: protein binding microarray
Molecule type: double-stranded DNA, one strand shown
Sample: in vitro
Concentration: not given
Setting: 8-mer, flanks averaged, mean of 2 arrays, mostly near background
Reference: not given
Direction: higher = stronger binding
Endpoint: E-score
Residues (chain): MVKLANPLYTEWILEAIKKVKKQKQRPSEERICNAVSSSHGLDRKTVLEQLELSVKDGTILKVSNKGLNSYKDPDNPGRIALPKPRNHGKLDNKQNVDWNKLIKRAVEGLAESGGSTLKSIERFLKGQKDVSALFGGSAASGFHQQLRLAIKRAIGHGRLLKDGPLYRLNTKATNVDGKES
CAAACCTC: -0.255
GACCACTA: -0.201
TTAGCCAA: -0.0457
ACGCACCG: 0.202
CTTACATC: -0.125
AAATGCCT: -0.214
CTGATTAA: -0.088
GCTATCCA: -0.0406

Set 4
Target: TAR DNA-binding protein 43, full length, His tag (TARDBP, Homo sapiens, UniProt Q13148, residues 1-414)
Technique: RNA Bind-n-Seq
Molecule type: RNA
Sample: in vitro
Concentration: 20 nM
Setting: 6-mer, flanks averaged, single round
With: 150 mM LiCl
Reference: input library
Direction: higher = stronger binding
Endpoint: 6-mer enrichment (R)
CCAAUU: 0.96
GUCUAA: 0.869
AGGUCA: 0.849
AGUACC: 0.871
UACGCA: 0.878
GCGCCG: 0.992
UGGGUA: 1.18
UUGCUG: 1.07

Repeated from above (set 4):
GUCUAA: 0.869
UGGGUA: 1.18
GCGCCG: 0.992
UUGCUG: 1.07
